Results of several laboratories.
Compare with care: the assays were run in different laboratories. Numbers after ± are the reported error.
Route: oral

Structure (SMILES)	assay	test system	conditions	measurement	result
CC(=O)Oc1ccccc1C(=O)O		human, both sexes, plasma	650 mg, geometric mean, together with: alcohol	t1/2	0.57 h
C[C@@H](Nc1cc(F)cc(F)c1)c1cc(C(=O)N(C)C)cc2c(=O)cc(N3CCOCC3)oc12		human, plasma	360 mg, day 1 single dose	t1/2 geometric mean	4.63 h
CCCOc1ccc(NC(=O)CN2CCN(C)CC2)cc1-c1nc(CC)c(CC)c(=O)[nH]1		human, fasting, plasma	10 mg, together with: alcohol 0.5 g/kg	t1/2	9.43 ± 2.06 h
COc1ccc([C@@H](O)c2cc(-c3ncnc4cc(N5CCOCC5)ccc34)c(F)cc2Cl)nn1		human, plasma	250 mg capecitabine, single dose, day 1	t1/2	5.14 h
Nc1ccc(S(=O)(=O)Nc2ccccn2)cc1		human	1000 mg, day 1, sulfasalazine alone	t1/2	12.2 h
FC(F)(F)c1ccc(CNc2ccc(Cc3c[nH]c4ncc(Cl)cc34)cn2)cn1	item: total radioactivity	healthy human male, whole blood	400 mg [14C]-labelled	t1/2	42.3 h
NC(=S)NN=Cc1ncccc1N		human, plasma	geometric mean, total	t1/2	1.5 h
CC[C@H](Nc1ncnc2[nH]cnc12)c1oc2ccccc2c(=O)c1-c1cccc(F)c1		human, plasma	800 mg twice daily, together with: romidepsin 14 mg/m2	t1/2	21 ± 24.2 h
N#CCC1CCN(c2nc(Nc3ccc(N4CCC(O)CC4)cc3)c3c(=O)[nH]ncc3n2)CC1		human, plasma	80 mg once daily, day 15	t1/2	14.1 h
Cl.[2H]C([2H])([2H])CC(=O)c1cnc(NC(=O)C2CC2)cc1Nc1cccc(-c2ncn(C([2H])([2H])[2H])n2)c1OC		human, fed, plasma	25 mg, single dose, liquid formulation	t1/2	7.91 h

Excerpt of the above:
Structure (SMILES)	assay	test system	conditions	measurement	result
CC(=O)Oc1ccccc1C(=O)O		human, both sexes, plasma	650 mg, geometric mean, together with: alcohol	t1/2	0.57 h
